Measured values pooled from the literature.
Compare with care: the assays were run in different laboratories.
Organism: Candida albicans

O=C(CCCN1CCC(O)(c2ccc(Cl)cc2)CC1)c1ccc(F)cc1  MIC (DSY654 (Cdr efflux pump knockout); 24 h, 35 °C): 4 µg/mL
CCCCCCCCCCCC(=O)NCCCC[C@H](NC(=O)CCCCCCCCCCC)C(=O)N[C@@H](CCCCNC(=O)CCCCCCCCCCC)C(=O)NCC(=O)NCC(=O)NCC(=O)N[C@@H](CS)C(=O)N[C@@H](CCCNC(=N)N)C(=O)N[C@@H](CCCCN)C(=O)N1CCC[C@H]1C(=O)N[C@@H](CS)C(=O)N[C@@H](CCCNC(=N)N)C(=O)N[C@@H](CCCCN)C(=O)N1CCC[C@H]1C(N)=O  MIC (broth microdilution; CGMCC 2.209, RPMI-1640; 48 h, 30 °C): > 128 µM
COC(=O)c1ccc(COC(CN2CCN(C(=O)NCc3ccc(OC)cc3)CC2)c2ccc(Cl)cc2)cc1 (stereo not shown)  MIC (DSY654 (Cdr efflux pump knockout); 24 h, 35 °C): 8 µg/mL
Cc1ccc2nc(C)c(C(=O)C(=O)NCc3ccccc3)n2c1  MIC (microbial growth, broth dilution): > 128 µM
CC(C)C[C@H](NC(=O)[C@H](CC(C)C)NC(=O)[C@H](CCCCN)NC(=O)CNC(=O)[C@H](CC(C)C)NC(=O)CNC(=O)[C@H](CO)NC(=O)[C@H](CC(C)C)NC(=O)[C@H](CC(C)C)NC(=O)[C@H](CO)NC(=O)[C@H](CCCCN)NC(=O)[C@H](CC(C)C)NC(=O)[C@H](CCCCN)NC(=O)[C@H](CCCCN)NC(=O)[C@H](CC(C)C)NC(=O)[C@H](CC(C)C)NC(=O)[C@H](CC(C)C)NC(=O)CNC(=O)[C@H](CO)NC(=O)[C@H](Cc1c[nH]c2ccccc12)NC(=O)[C@@H](N)CCCCN)C(=O)O  MIC (broth microdilution; ATCC 10231; 44 h, 37 °C): > 100 µM
CC[C@H](C)[C@H](NC(=O)[C@H](CCCCN)NC(=O)[C@@H](NC(=O)[C@@H](NC(=O)[C@H](CC(C)C)NC(=O)[C@H](CCCNC(=N)N)NC(=O)[C@@H](NC(=O)[C@H](CC(C)C)NC(=O)[C@H](CCCNC(=N)N)NC(=O)CNC(=O)[C@H](Cc1ccccc1)NC(=O)[C@@H](N)CCCNC(=N)N)[C@@H](C)CC)[C@@H](C)CC)C(C)C)C(=O)N[C@@H](C)C(=O)N[C@@H](CCCNC(=N)N)C(=O)N[C@@H](CCCNC(=N)N)C(=O)N[C@@H](C)C(=O)N[C@@H](Cc1c[nH]cn1)C(=O)N[C@@H](CCCNC(=N)N)C(=O)N[C@@H](C)C(=O)N[C@@H](CCCNC(=N)N)C(=O)N[C@@H](CO)C(=O)N[C@@H](C)C(=O)N[C@H](C(=O)N[C@@H](CCCCN)C(=O)N[C@@H](C)C(=O)N[C@@H](C)C(=O)N[C@@H](CO)C(=O)N[C@@H](CC(N)=O)C(=O)N[C@H](C(=O)N[C@@H](C)C(=O)N[C@@H](C)C(=O)N[C@@H](CC(C)C)C(=O)N[C@@H](C)C(=O)N[C@@H](Cc1c[nH]cn1)C(=O)NCC(=O)N[C@@H](C)C(N)=O)C(C)C)C(C)C  MIC (broth microdilution; 36 h, 35 °C): ≤ 0.064 µM
CN(C=O)CP(=O)(O)O  MIC (microbial growth, broth dilution; SC5314; 24 h): > 128 µg/mL
C=C1NC(=O)C2C[S+]([O-])CC3NC(=O)C(CSC(C)C(NC(=S)C(Cc4cnc[nH]4)NC(=O)c4csc(C(C)NC(C)=O)n4)C(=O)N[C@H](CC(C)C(=O)NC(=O)CC(C(=O)O)NC(=O)C(C)NC3=O)C(=O)N2)NC(=O)[C@@H]2CCCN2C(=O)[C@@H](CC(C)C)NC1=O (stereo partly shown)  MIC (EUCAST broth microdilution; clinical isolate, RPMI 1640 with MOPS; pH 7.0, 37 °C, 2% glucose): > 32 µg/mL
CCCCCCCC(=O)NCCCC[C@H](NC(=O)CCCCCCC)C(=O)N[C@@H](CCCCNC(=O)CCCCCCC)C(=O)NCC(=O)NCC(=O)NCC(=O)N[C@@H](CS)C(=O)N[C@@H](CCCNC(=N)N)C(=O)N[C@@H](CCCCN)C(=O)N1CCC[C@H]1C(=O)N[C@@H](CS)C(=O)N[C@@H](CCCNC(=N)N)C(=O)N[C@@H](CCCCN)C(=O)N1CCC[C@H]1C(=O)N[C@@H](CS)C(=O)N[C@@H](CCCNC(=N)N)C(=O)N[C@@H](CCCCN)C(=O)N1CCC[C@H]1C(=O)N[C@@H](CS)C(=O)N[C@@H](CCCNC(=N)N)C(=O)N[C@@H](CCCCN)C(=O)N1CCC[C@H]1C(N)=O  MIC (broth microdilution; 14936, RPMI-1640; 48 h, 30 °C): 8 µM
Cc1ccc2nc(C)c(C(=O)C(=O)NCc3ccc(N(C)C)cc3)n2c1  MIC (microbial growth, broth dilution): > 128 µM
CCCCCC(=O)NCCCC[C@H](NC(=O)CCCCC)C(=O)N[C@@H](CCCCNC(=O)CCCCC)C(=O)NCC(=O)NCC(=O)NCC(=O)N[C@@H](CS)C(=O)N[C@@H](CCCNC(=N)N)C(=O)N[C@@H](CCCCN)C(=O)N1CCC[C@H]1C(=O)N[C@@H](CS)C(=O)N[C@@H](CCCNC(=N)N)C(=O)N[C@@H](CCCCN)C(=O)N1CCC[C@H]1C(N)=O  MIC (broth microdilution; 58288, RPMI-1640; 48 h, 30 °C): 8 µM
Nc1ccccc1C(=O)OCC#CCOC(=O)c1ccccc1N  MIC: 4 µg/mL
CCOC(=O)C(Cc1ccccc1)NC(=O)N1CCN(CC(OCc2cccc(C)c2)c2ccc(Cl)cc2)CC1 (stereo not shown)  MIC (DSY654 (Cdr efflux pump knockout); 24 h, 35 °C): 4 µg/mL
CC[C@H](C)[C@H](NC(=O)CNC(=O)[C@H](CC(=O)O)NC(=O)[C@H](CCCNC(=N)N)NC(=O)[C@@H](NC(=O)[C@H](Cc1c[nH]cn1)NC(=O)[C@H](CCC(N)=O)NC(=O)CNC(=O)[C@@H](NC(=O)[C@H](CCCNC(=N)N)NC(=O)[C@H](CCC(=O)O)NC(=O)[C@@H](NC(=O)[C@H](CCCCN)NC(=O)[C@H](CCCCN)NC(=O)[C@H](Cc1ccccc1)NC(=O)[C@@H](NC(=O)[C@H](CCCCN)NC(=O)[C@H](Cc1c[nH]c2ccccc12)NC(=O)[C@@H](N)CCCCN)[C@@H](C)CC)[C@@H](C)CC)C(C)C)C(C)C)C(=O)N[C@H](C(=O)N[C@@H](CCCCN)C(=O)N[C@@H](C)C(=O)NCC(=O)N[C@@H](CO)C(=O)N[C@@H](C)C(=O)N[C@H](C(=O)N[C@@H](CCC(N)=O)C(=O)N[C@H](C(=O)N[C@H](C(=O)NCC(=O)N[C@@H](CCC(N)=O)C(=O)N[C@@H](C)C(=O)N[C@@H](C)C(=O)N[C@@H](C)C(=O)N[C@H](C(=O)N[C@@H](C)C(=O)N[C@@H](CCCCN)C(N)=O)[C@@H](C)CC)C(C)C)C(C)C)C(C)C)[C@@H](C)CC  MIC (broth microdilution; 36 h, 35 °C): > 8 µM
COC(=O)c1ccc(COC(CN2CCN(C(=O)Nc3ccccc3C)CC2)c2ccc(Cl)cc2)cc1 (stereo not shown)  MIC (microbial growth, broth dilution; DSY654): 4 µg/mL
N=C(N)NCCC[C@H](NC(=O)[C@H](CCCNC(=N)N)NC(=O)[C@H](Cc1ccccc1)NC(=O)[C@H](CO)NC(=O)[C@H](Cc1ccccc1)NC(=O)[C@H](Cc1c[nH]c2ccccc12)NC(=O)[C@H](Cc1ccccc1)NC(=O)[C@H](CO)NC(=O)[C@H](Cc1ccccc1)NC(=O)[C@H](CCCNC(=N)N)NC(=O)[C@@H](N)CCCNC(=N)N)C(N)=O  MIC (CGMCC 2.209, RPMI 1640 MOPS-buffered; 48 h, 37 °C, tested up to 128 µM): 2 µM
CC[C@H](C)[C@H](NC(=O)[C@H](C)NC(=O)[C@@H](NC(=O)[C@H](CC(=O)O)NC(=O)[C@H](CCCCN)NC(=O)[C@H](CO)NC(=O)[C@@H](NC(=O)[C@H](CC(N)=O)NC(=O)[C@H](C)NC(=O)[C@@H](NC(=O)[C@H](CCC(=O)O)NC(=O)[C@H](CCCCN)NC(=O)[C@@H](NC(=O)[C@@H](NC(=O)[C@H](Cc1c[nH]cn1)NC(=O)[C@H](CCCCN)NC(=O)[C@@H](NC(=O)[C@H](CCCCN)NC(=O)[C@H](CCCCN)NC(=O)[C@@H](NC(=O)[C@H](CC(C)C)NC(=O)[C@H](CCCCN)NC(=O)[C@H](CC(N)=O)NC(=O)[C@H](Cc1ccccc1)NC(=O)[C@H](CCCNC(=N)N)NC(=O)[C@H](CCCCN)NC(=O)[C@H](CCCNC(=N)N)NC(=O)[C@H](Cc1ccccc1)NC(=O)CN)C(C)C)C(C)C)[C@@H](C)O)[C@@H](C)CC)[C@@H](C)O)C(C)C)C(C)C)C(=O)N[C@H](C(=O)N[C@@H](C)C(=O)NCC(=O)N[C@@H](CO)C(=O)NCC(=O)N[C@H](C(=O)N[C@@H](C)C(=O)N[C@H](C(=O)NCC(=O)N[C@@H](C)C(=O)N[C@@H](C)C(=O)N[C@@H](CCSC)C(N)=O)C(C)C)C(C)C)C(C)C  MIC (broth microdilution; FH2173, CAMHB): > 1020 µg/mL
CCCCCCCC(=O)NCCCC[C@H](NC(=O)CCCCCCC)C(=O)N[C@@H](CCCCNC(=O)CCCCCCC)C(=O)NCC(=O)NCC(=O)NCC(=O)N[C@@H](CS)C(=O)N[C@@H](CCCNC(=N)N)C(=O)N[C@@H](CCCCN)C(=O)N1CCC[C@H]1C(N)=O  MIC (broth microdilution; 14936, RPMI-1640; 48 h, 30 °C): > 128 µM
CCC(=O)c1ccc(OCC(O)CN2CCN(C(c3ccccc3)c3ccccc3)CC2)cc1 (stereo not shown)  MIC (microbial growth, broth dilution; DSY654): 8 µg/mL

Repeated from above:
O=C(CCCN1CCC(O)(c2ccc(Cl)cc2)CC1)c1ccc(F)cc1  MIC (DSY654 (Cdr efflux pump knockout); 24 h, 35 °C): 4 µg/mL
CCCCCCCCCCCC(=O)NCCCC[C@H](NC(=O)CCCCCCCCCCC)C(=O)N[C@@H](CCCCNC(=O)CCCCCCCCCCC)C(=O)NCC(=O)NCC(=O)NCC(=O)N[C@@H](CS)C(=O)N[C@@H](CCCNC(=N)N)C(=O)N[C@@H](CCCCN)C(=O)N1CCC[C@H]1C(=O)N[C@@H](CS)C(=O)N[C@@H](CCCNC(=N)N)C(=O)N[C@@H](CCCCN)C(=O)N1CCC[C@H]1C(N)=O  MIC (broth microdilution; CGMCC 2.209, RPMI-1640; 48 h, 30 °C): > 128 µM
